Measured values pooled from the literature.
Each line is one published result; not all experiments were run side by side.
TDP1: Tyrosyl-DNA phosphodiesterase 1 (TDP1, Homo sapiens, UniProt Q9NUW8)
UniProt Q9NUW8, sequence (whole entry, looked up): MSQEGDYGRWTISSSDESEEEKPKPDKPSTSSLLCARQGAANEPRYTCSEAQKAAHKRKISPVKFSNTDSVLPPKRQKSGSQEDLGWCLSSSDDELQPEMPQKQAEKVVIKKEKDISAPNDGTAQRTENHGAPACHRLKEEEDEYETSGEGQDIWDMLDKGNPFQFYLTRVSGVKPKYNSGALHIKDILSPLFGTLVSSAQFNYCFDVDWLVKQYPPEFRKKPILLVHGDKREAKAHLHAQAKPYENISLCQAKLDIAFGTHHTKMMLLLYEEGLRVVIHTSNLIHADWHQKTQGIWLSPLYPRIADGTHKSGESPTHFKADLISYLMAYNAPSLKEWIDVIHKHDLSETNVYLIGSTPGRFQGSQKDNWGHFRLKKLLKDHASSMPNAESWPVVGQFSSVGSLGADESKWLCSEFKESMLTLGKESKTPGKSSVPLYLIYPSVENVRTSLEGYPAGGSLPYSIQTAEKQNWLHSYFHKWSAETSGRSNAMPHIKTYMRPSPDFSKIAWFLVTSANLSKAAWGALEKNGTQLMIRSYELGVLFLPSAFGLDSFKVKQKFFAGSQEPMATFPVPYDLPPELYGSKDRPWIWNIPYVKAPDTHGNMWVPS

SMILES	target or system	test	system	setting	measurement	result
COc1ccccc1NC(=O)OC1C(C)C(OC)C=COC2(C)Oc3c(C)c(O)c4c(c3C2=O)C2=NC3(CCN(CC(C)C)CC3)NC2=C(NC(=O)C(C)=CC=CC(C)C(O)C(C)C(O)C1C)C4=O (stereo not drawn)	Mycobacteroides abscessus	intracellular growth, visual read	THP-1 derived macrophages, ATCC 19977	–	IC50	0.018 µM
CNCc1ccc2c(c1)N(C(=O)OCc1c(F)c(F)c(F)c(F)c1F)[C@H](CNC(=N)N)[C@H]2NC(=O)C(=O)Nc1ccc(Cl)c(F)c1	HIV-1	pseudovirus infection, Env pseudovirus neutralisation	TZM-bl, clade G isolate C1_B5	–	IC50	1.59 µM
CC(C)[C@@H]1NC(=O)[C@@H](CCCNC(=N)N)NC(=O)[C@H]([C@@H](C)O)NC(=O)[C@@H](CCCN)NC(=O)[C@H](Cc2ccccc2)NC(=O)[C@@H](Cc2ccc(F)cc2)NC1=O	Balamuthia mandrillaris	parasite growth, ATP luminescence	–	–	IC50	12 µM
c1ccc2c(Cc3c[nH]c4ccccc34)c[nH]c2c1	Phocaeicola dorei	bacterial growth, inhibitor, OD600	–	anaerobic	IC50	> 50 µM
Nc1nc(-c2ccc(OC(F)(F)F)cc2)nc2[nH]nc(Nc3ccc(Cl)cc3)c12	rhinovirus A2	viral cytopathic effect	HeLa	–	IC50	3.1 µM
O=c1c(O)cccc2cc(O)c(O)c(O)c12	HepDES19	cell growth or viability, MTS	–	72 h	CC50	92 µM
Cn1nc(Nc2ccc(C#N)cc2)c2c(N)nc(-c3ccccc3)nc21	rhinovirus A2	viral cytopathic effect	HeLa	–	IC50	92.3 µM
O=C(CCCc1cn(C[C@H]2O[C@@H]3O[C@H]4[C@H](O)[C@@H](O)[C@@H](O[C@H]5[C@H](O)[C@@H](O)[C@@H](O[C@H]6[C@H](O)[C@@H](O)[C@@H](O[C@H]7[C@H](O)[C@@H](O)[C@@H](O[C@H]8[C@H](O)[C@@H](O)[C@@H](O[C@H]9[C@H](O)[C@@H](O)[C@@H](O[C@H]2[C@H](O)[C@H]3O)O[C@@H]9Cn2cc(CCCC(=O)N[C@H]3CCOC3=O)nn2)O[C@@H]8Cn2cc(CCCC(=O)N[C@H]3CCOC3=O)nn2)O[C@@H]7Cn2cc(CCCC(=O)N[C@H]3CCOC3=O)nn2)O[C@@H]6Cn2cc(CCCC(=O)N[C@H]3CCOC3=O)nn2)O[C@@H]5Cn2cc(CCCC(=O)N[C@H]3CCOC3=O)nn2)O[C@@H]4Cn2cc(CCCC(=O)N[C@H]3CCOC3=O)nn2)nn1)N[C@H]1CCOC1=O	Escherichia coli	LuxR reporter, antagonist	DH5α sensor strain	with: OHHL 200 nM	IC50	10 to 20 µM
CC(C)CC(c1c[nH]c2ccccc12)c1c[nH]c2ccccc12	Phocaeicola dorei	bacterial growth, inhibitor, OD600	–	anaerobic	IC50	> 50 µM
O=C(O)c1ccc(Nc2c(-c3ccc(CON=Cc4ccc(-n5cccn5)cc4)cc3)nc3cc(-c4ccccc4)ccn23)cc1	TDP1	enzyme activity, inhibitor	–	100 µM, unpurified compound	inhibition	89.7%
CC(C)[C@@H]1NC(=O)[C@@H](CCCNC(=N)N)NC(=O)[C@H]([C@@H](C)O)NC(=O)[C@@H](CCCN)NC(=O)[C@H](Cc2ccccc2)NC(=O)[C@@H](Cc2ccc(F)c(F)c2)NC1=O	Balamuthia mandrillaris	parasite growth, ATP luminescence	–	–	IC50	13.1 µM
c1ccc2c([C+](c3c[nH]c4ccccc34)c3c[nH]c4ccccc34)c[nH]c2c1	Phocaeicola dorei	bacterial growth, inhibitor, OD600	–	anaerobic	IC50	> 50 µM
Cc1ccc(Nc2n[nH]c3nc(-c4cccc(F)c4)nc(N)c23)cc1	rhinovirus A2	viral cytopathic effect	HeLa	–	IC50	7.24 µM
CCOc1cccc2ccc(C=NOCc3ccc(-c4nc5cc(-c6ccccc6)ccn5c4Nc4ccc(C(=O)O)cc4)cc3)nc12	TDP1	enzyme activity, inhibitor	–	100 µM, unpurified compound	inhibition	89%
Nc1nc(-c2ccccc2)nc2[nH]nc(Nc3ccc(OC(F)(F)F)cc3)c12	rhinovirus A2	viral cytopathic effect	HeLa	–	IC50	24.3 µM
Nc1nc(=O)[nH]cc1F	Balamuthia mandrillaris	parasite growth	–	–	IC50	86 µM
O=Cc1c[nH]c2ccccc12	Phocaeicola dorei	bacterial growth, inhibitor, OD600	–	anaerobic	IC50	> 50 µM
CCc1ccc(-c2nc(N)c3c(Nc4ccc(F)cc4)n[nH]c3n2)cc1	rhinovirus A2	viral cytopathic effect	HeLa	–	IC50	1.15 µM
